Assay results collected from several papers.
Values joined by “and” are separate records of one study, mostly repeats; a detail may differ.
UniProt P05177, sequence (whole entry, looked up): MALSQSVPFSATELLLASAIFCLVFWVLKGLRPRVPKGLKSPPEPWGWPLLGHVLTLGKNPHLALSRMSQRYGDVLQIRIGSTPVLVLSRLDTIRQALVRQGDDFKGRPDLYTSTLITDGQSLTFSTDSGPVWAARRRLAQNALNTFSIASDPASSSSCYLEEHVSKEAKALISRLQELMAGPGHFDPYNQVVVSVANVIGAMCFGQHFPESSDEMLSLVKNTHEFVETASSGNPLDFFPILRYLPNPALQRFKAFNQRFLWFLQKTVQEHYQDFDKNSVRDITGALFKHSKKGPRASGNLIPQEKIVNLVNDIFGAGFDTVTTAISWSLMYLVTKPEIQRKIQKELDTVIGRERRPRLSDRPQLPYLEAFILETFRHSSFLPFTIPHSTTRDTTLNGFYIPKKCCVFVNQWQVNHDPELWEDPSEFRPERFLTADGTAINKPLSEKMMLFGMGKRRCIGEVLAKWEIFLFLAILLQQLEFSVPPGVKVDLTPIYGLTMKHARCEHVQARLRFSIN

SMILES	tested on	test	test system	conditions	scale	endpoint	result
O=C1C2CC3CC1CC(C(=O)N1CCN(c4ccc([N+](=O)[O-])c5ncccc45)CC1)(C3)C2	Salmonella typhimurium	Ames test	TA100	0.78 µg/well, without S9	reference: vehicle	revertant fold increase	0.9
CC(C)C[C@@H]1NC(=O)[C@H](CO)NC(=O)[C@H](CC(=O)O)NC(=O)[C@@H]2CCCN2C(=O)[C@H]2CCCN2C(=O)[C@H](C(C)C)NC(=O)[C@H](CC(=O)O)NC(=O)[C@H](CC(N)=O)NC(=O)[C@H](CCCNC(=N)N)NC(=O)[C@H]([C@@H](C)O)NC(=O)[C@H](C(C)C)NC(=O)CCNC(=O)CCNC(=O)[C@H](Cc2ccccc2)NC(=O)[C@H](C(C)C)NC(=O)[C@H](CC(C)C)NC1=O	HEK-293T	subcellular fractionation LC-MS	cytoplasmic fraction	20 µM, 24 h	–	peptide amount per protein	not detected
O=C(NCCOc1ccc(F)cc1)c1ccc([C@H]2[C@@H](F)[C@@H](F)C[C@@H](F)[C@H]2F)cc1	–	liver microsome stability	rat liver microsomes	1 µM	–	hepatic clearance	26 mL/min/kg
CC(C)Cc1ccc(C(C)C(=O)N[C@@H](CCCCNC(=O)CCOCCOCCOCCOCCOCCOCCNC(=O)CN2CCN(CC(=O)[O-])CCN(CC(=O)[O-])CCN(CC(=O)[O-])CC2)C(=O)Nc2cccc3c(C(=O)NCC(=O)N4CC(F)(F)C[C@H]4C#N)ccnc23)cc1.[177Lu+3] (some centres unmarked)	U-87 MG tumour model	–	host not given, bone	24 h, tumour-bearing	–	tracer uptake	2.66 %ID/g
CCN(CC)CC#CCNc1ccnc2cc(Cl)ccc12	Salmonella typhimurium	mini-Ames test	TA97a	125.0 µg/well, with rat liver S9	–	revertants	23 revertants/well and 4 revertants/well
N#C[C@@H]1CC(F)(F)CN1C(=O)CNC(=O)c1ccnc2c(NC(=O)[C@H](CCCCNC(=O)CCOCCOCCOCCOCCOCCOCCNC(=O)CN3CCN(CC(=O)[O-])CCN(CC(=O)[O-])CCN(CC(=O)[O-])CC3)NC(=O)CCCc3ccc(I)cc3)cccc12.[177Lu+3]	U-87 MG tumour model	–	host not given, bone	24 h, tumour-bearing	–	tracer uptake	2.93 %ID/g
Cc1ccc(-c2ccc([C@H]3[C@@H](F)[C@@H](F)C[C@@H](F)[C@H]3F)cc2)cn1	–	hepatocyte stability	cryopreserved rat hepatocytes	1 µM	–	hepatic clearance	44 mL/min/kg
COc1cccc(OC)c1-c1cc(C(=O)NC2(C(=O)O)C3CC4CC(C3)CC2C4)nn1-c1ccc(C(=O)N(C)CCOCCOCCN(C)C(=O)[C@H](CCCCNC(=O)[C@H](CC(C)C)NC(=O)C2OC2C(=O)O)NC(=O)CN2CCN(CC(=O)[O-])CCN(CC(=O)[O-])CCN(CC(=O)[O-])CC2)cc1C(C)C.[177Lu+3] (mixture of isomers)	HT-29 tumour model	–	host not given, blood	24 h, tumour-bearing	–	tracer uptake	0.5 %ID/g
N#C[C@@H]1CCCN1C(=O)CNC(=O)c1ccnc2ccc(OCCCN3CCN(C(=O)CCc4ccc(O)c(CN5CCN6CC(=O)[O][Al-]([18F])([O]C(=O)C5)[O]c5ccc(CCC(=O)N7CCN(CCCOc8ccc9nccc(C(=O)NCC(=O)N%10CCC[C@H]%10C#N)c9c8)CC7)cc5C6)c4)CC3)cc12 (some centres unmarked)	U-87 MG tumour model	–	host not given, muscle	1 h, tumour-bearing	–	tracer uptake	2.81 %ID/g
CNC(=O)C1CCCN(C(=O)C2CC3CCC2N3C(=O)[C@@H]2C[C@@H](O)CN2C(=O)NCc2cccc(Cl)c2F)C1 (mixture of isomers)	Cytochrome P450 1A2 (CYP1A2, Homo sapiens, UniProt P05177)	preincubation without NADPH	human	5.56 µM	reference: negative control	remaining activity	93.8%
O=C(CC(F)(F)F)Nc1ccc([C@H]2[C@@H](F)[C@@H](F)C[C@@H](F)[C@H]2F)cc1	–	liver microsome stability	dog liver microsomes	1 µM	–	hepatic clearance	13 mL/min/kg
COC(=O)CC[C@@H](NC(=O)[C@@H](Cc1ccc(OP(=O)(O)O)cc1)NC(=O)[C@@H](Cc1ccccc1)NC(=O)[C@@H](Cc1ccccc1)NC(=O)Cc1ccc2ccccc2c1)C(=O)OC	carboxylesterase	substrate	–	200 µM, 1 h, pH 7.4, 37 °C, together with: carboxylesterase 1 U/mL	–	ester hydrolysis	19.4%
F[C@@H]1[C@H](c2ccc(-c3cncnc3)cc2)[C@H](F)[C@H](F)C[C@@H]1F	–	liver microsome stability	human liver microsomes	1 µM, without NADPH	–	hepatic clearance	3.9 mL/min/kg
NC(=O)c1cccc(NC(=O)c2cc(-c3ccc4c(c3)OCCO4)n(-c3ccccc3)n2)c1	HeLa	cell growth or viability	–	–	–	CC50	> 100 µM

Some of these lines once more:
SMILES	tested on	test	test system	conditions	scale	endpoint	result
CCN(CC)CC#CCNc1ccnc2cc(Cl)ccc12	Salmonella typhimurium	mini-Ames test	TA97a	125.0 µg/well, with rat liver S9	–	revertants	23 revertants/well and 4 revertants/well
